Measurements collected from several papers.
Numbered parts are unrelated; each lists some results of a single study. Changes are numbered by the printed parent chain.

Study 1 — target: CCNB2, cyclin fold, Cln2 fusion (human); method: yeast growth competition, sequencing; medium: yeast; setting: weak parent motif; relative to: not given; reading: higher = stronger binding
Parent: CDKN1B docking peptide (human); PSACRNLFGPVDH
Variant | normalised enrichment score
P1W | 0.609
V11P | 0.777
L7Y | 0.24
G9D | 0.315
N6T | -0.209
D12K | 0.495
C4M | -0.0261
V11F | -0.124
F8G | -0.0664
R5Y | -0.0296
C4T | -0.0623
R5K | -0.00831
G9M | -0.00204
A3Q | 0.228
D12W | 0.428
N6G | 0.148

Study 2 — method: RNA Bind-n-Seq; form: RNA; medium: in vitro; concentration: 365 nM; relative to: no-protein control; reading: higher = stronger binding
Target: RNA binding protein fox-1 homolog 2, RRM domain, GST-SBP tag (RBFOX2, Homo sapiens, UniProt O43251-10, residues 100-194)
Setting: natural RNA segment, single round, ends assumed
Construct (chain): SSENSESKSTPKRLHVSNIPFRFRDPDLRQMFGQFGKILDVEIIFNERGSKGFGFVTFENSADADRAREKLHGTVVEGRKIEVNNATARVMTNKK
Oligonucleotide | RBNS enrichment (R)
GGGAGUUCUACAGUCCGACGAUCCUGCUGUCUGGGCUGUAAAGUCUGGAAGGCAUUGGAACUUCUCUGUGGAGUGUAUUAGCAUUCAUCUCUCAUAGACAUCAUGUCACAAAAGACAAUGUUAGUAAACUACAUGGAAUUCUCGGGUGCCAA | 0.221
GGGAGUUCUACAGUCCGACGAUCAAACAAAAAACCCUUCAAUAGCAUCCUUGAGGAAAAGGAACAGCAGUUGACUGUAAGUGCUUCCCUGUCAUCCAUGUGCAAUUUCCCGACAUUCCACCUCCAUCUCUGCUUGGAAUUCUCGGGUGCCAA | 15.5
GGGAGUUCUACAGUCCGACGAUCUGUUGACCUGCUCAGGUGCACAUCUGUGAUGCCGACAGACUUGGUUCAGUUUUUAUAGUUGUGUUGGUUUUCUUAAUUGAUUUUUGUUAAUAAUACCUUAAUCCAGGGUAUGGAAUUCUCGGGUGCCAA | 0.55
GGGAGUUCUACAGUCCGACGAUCAGCAACCUGGCCAGCCUGAGGUCUUCCAGGAGAUGCUGUCCAUGCUGGGAGAUCAGAGCAACAGCUACAACAAUGAAGAAUUCCCUGAUCUAACUAUGUUUCCCCCCUUUUGGAAUUCUCGGGUGCCAA | 1.85
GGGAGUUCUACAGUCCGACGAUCUGGACAGGAAGAUGGCAGAAGCUACGCUAUUGUCAUAGCAAAAGAGCUUUCUAUUUGGCACAUACCAGGGGUCCAGCUACUGGAAGGGCUCUACCCCAAACUCUGAGGACUGGAAUUCUCGGGUGCCAA | 0.368
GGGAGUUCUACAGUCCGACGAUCUACCAACAAUUUUUUUAGAUUGAAAAUAUAUUAAAUAAGAAUCCAUCUAGUCUAUUUGUGUUAAAACAUGCUUUCAGAUGGAAGACGAACAUUCAUCUUAUAAAUGAACAUGGAAUUCUCGGGUGCCAA | 0.614
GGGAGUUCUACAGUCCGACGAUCACUGUAAAUGGCUUUAGUUGUAAAGUGCAUUGUGGGCCAGCAGGCCCAGAUUUCUCUUGACACCAGAAGAUGCUGAGCAAUGGUGUCAAAGGACCAGCUCCACACUGCCCUGGAAUUCUCGGGUGCCAA | 0.537
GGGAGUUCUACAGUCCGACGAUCGGCAUGGGUUUCGUCCAAAAAUCAUGAAUUUUUCUAAUUCUACUAUUUUACAACUUGCUGAGACACAAAUACUGUGCCCUUCCUGUCCUACUGACCACUGGGUAUGUAAUUGGAAUUCUCGGGUGCCAA | 0.514
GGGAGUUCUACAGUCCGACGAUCAUCAAAUCAUUGUUGCCUCUCAUACCAAAAUGUUCUUACCCACUGUCCUUCCCCCUUCUCUGCUUUGCAGUCCCCAUGGACUCUGGGCAUGGUGCACUGUCGUCUUUGCUUGGAAUUCUCGGGUGCCAA | 0.532
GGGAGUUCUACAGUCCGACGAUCGUUUAUGUAUAUAUGUGAUUCUGAUAAAAUAGACAUUGCUAUUCUGUUUUUUAUAUGUAAAAACAAAACAAGAAAAAUAGAGAAUUCUACAUACUAAAUCUCUCUCCUUUUGGAAUUCUCGGGUGCCAA | 0.502
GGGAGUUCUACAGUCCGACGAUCUGAGAUGCAAGAGCAUUUAGCAUACCAUGUAAAUAUGGACCUUUUAAAAUUAAAAUACUAUUGGAAGUGCUUUCAACUCAGCCACAUCUUAGCUAUUAGUUCUUUGUGUUUGGAAUUCUCGGGUGCCAA | 0.473
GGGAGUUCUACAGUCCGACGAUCUCGAUUCUGCACAGCCCAGCCUCCCCGAGGGCCUUUCCAAGCACAGUGGGGAUUUCUUAGAACAGGAGAGAGGAAUCCAUGAAGCAGGAGAAGCAGUGCCUGCCAGCUGUUGGAAUUCUCGGGUGCCAA | 0.388

Study 3 — method: protein binding microarray; form: double-stranded DNA, one strand shown; medium: in vitro; concentration: not given; relative to: not given; reading: higher = stronger binding
Target: Histone acetyltransferase KAT6A, winged helix 1, GST fusion (KAT6A, Homo sapiens, UniProt Q92794, residues 1-85)
Setting: 8-mer, flanks averaged, mean of 2 arrays, mostly near background
Target sequence (chain): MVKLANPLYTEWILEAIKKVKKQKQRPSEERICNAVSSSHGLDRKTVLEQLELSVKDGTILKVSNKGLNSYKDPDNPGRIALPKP
Oligonucleotide | E-score
CAAGACTA | -0.167
AGTTCTTC | 0.0402
CGAACACA | -0.144
ACACGCCG | 0.365
ATGAGGCG | 0.211
CATCTTTC | -0.197
CATCCTGC | -0.0602
CAAATCCA | -0.304
CTTGCAAC | -0.217
GACTTGTA | -0.0347
AGTGCGAT | 0.0213
AAATCCGA | 0.0778
CGAAGTTC | -0.0775
AGGGACAG | -0.219
ATAAAAAA | -0.0279
CTACAGAA | -0.129
CCGACGCC | 0.414
GAAGATCC | -0.127
AATGTTCA | -0.151
CAAAGAGC | 0.086

Study 4 — method: DHFR PCA, deep sequencing; medium: yeast; added: (+)-ABA 0.11 µM; relative to: wild-type fitted maximum; reading: higher = stronger binding
Target: ABI1, truncated, D143A, DHFR fusion (Arabidopsis thaliana)
Setting: methotrexate growth selection, single substitutions
Parent: PYL1, truncated, DHFR fusion (Arabidopsis thaliana); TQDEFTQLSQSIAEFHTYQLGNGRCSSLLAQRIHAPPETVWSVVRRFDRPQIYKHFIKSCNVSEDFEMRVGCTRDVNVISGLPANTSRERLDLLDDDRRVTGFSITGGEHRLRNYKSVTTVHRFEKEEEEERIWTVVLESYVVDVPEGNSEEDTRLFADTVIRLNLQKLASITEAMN; partner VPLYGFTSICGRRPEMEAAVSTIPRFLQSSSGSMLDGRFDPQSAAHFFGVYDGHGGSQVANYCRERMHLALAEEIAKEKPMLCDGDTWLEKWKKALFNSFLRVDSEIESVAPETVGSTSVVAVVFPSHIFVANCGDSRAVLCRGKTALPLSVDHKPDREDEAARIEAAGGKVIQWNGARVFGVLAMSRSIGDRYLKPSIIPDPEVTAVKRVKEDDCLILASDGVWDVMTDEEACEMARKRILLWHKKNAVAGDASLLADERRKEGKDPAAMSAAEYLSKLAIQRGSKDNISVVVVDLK
Variant | relative binding score
V143C | 43.8%
L166E | 8.92%
L93E | -1.58%
E38H | 4.42%
Y53K | -4.4%
E89H | -1.89%
T135M | -7.84%
G108R | -2.36%
T1E | 38.9%
R98P | -4.65%
T17D | -6.96%
E38I | -1.56%
L169Y | 5.6%
V78N | 42.2%
L29M | 7.4%

Study 5 — method: RNA Bind-n-Seq; form: RNA; medium: in vitro; concentration: 200 nM; setting: whole 134-nt RNA, ends assumed; added: 150 mM KCl; relative to: input library; reading: higher = stronger binding
Target: Ras GTPase-activating protein-binding protein 1, full length (G3BP1, Homo sapiens, UniProt Q13283)
Chain of UniProt Q13283 (whole entry, looked up): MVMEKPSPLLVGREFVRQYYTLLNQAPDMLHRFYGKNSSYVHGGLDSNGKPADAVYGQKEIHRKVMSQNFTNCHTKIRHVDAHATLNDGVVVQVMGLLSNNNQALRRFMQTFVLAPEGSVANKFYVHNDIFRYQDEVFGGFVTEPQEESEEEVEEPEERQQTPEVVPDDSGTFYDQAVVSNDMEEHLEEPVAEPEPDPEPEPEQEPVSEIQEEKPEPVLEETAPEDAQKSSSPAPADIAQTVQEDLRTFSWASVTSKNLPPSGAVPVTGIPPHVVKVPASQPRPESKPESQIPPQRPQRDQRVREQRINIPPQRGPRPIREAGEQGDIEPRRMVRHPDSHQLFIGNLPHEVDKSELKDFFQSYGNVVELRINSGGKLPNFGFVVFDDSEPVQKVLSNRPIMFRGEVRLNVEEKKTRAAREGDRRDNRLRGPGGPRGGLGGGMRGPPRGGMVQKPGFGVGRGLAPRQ
Oligonucleotide | log2 enrichment
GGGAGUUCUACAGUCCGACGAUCGCAGGAAGUAAAAACAAAUGGAAAUGCUUCGGAUAGUGGCAGGGGUGCGGGUUGCUAAGGAAAGGGUGGGAUGGGAGUGGGUAAAGAGUUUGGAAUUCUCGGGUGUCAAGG | 0.912
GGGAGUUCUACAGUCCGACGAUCAAGUCCUGUGCUACACAUCGUAUGUACCGAAUCGGAAAAAAAGGUGGUUUUUUUGGAAAGUAUUAUGUUACGCCGUUCGGAUCUGCACUUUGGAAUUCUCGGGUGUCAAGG | -1.43
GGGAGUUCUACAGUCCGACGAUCCUCAAGUCCUGUGCUACACAUCGUAUGUACCGAAUCGGGAAGGGGAAGGAAGGGAAAGUAUUAUGUUACGCCGUUCGGAUCUGCACUUCCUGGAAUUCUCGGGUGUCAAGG | -0.15
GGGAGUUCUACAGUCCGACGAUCAAAGCAAGAGAUGGCUAGUGCUUCAUCCAGCCAAAGAGGUAUGCUUGUUGCUUAAUUAAACCUUAAAGGUAACUUUGAGUUACUCCAGUAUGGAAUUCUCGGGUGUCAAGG | -1.28
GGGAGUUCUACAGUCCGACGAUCUCCUGUGCUACACAUCGUAUGUACCGAAUCGGAAAAAAGGAAAAAAGGGGAAAAAAGGGAAAGUAUUAUGUUACGCCGUUCGGAUCUGCAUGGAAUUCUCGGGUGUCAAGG | -0.682
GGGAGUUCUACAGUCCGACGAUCAGUCCUGUGCUACACAUCGUAUGUACCGAAUCGGGCCCCGGGCCCCGGGGCCCCGGGGAAAGUAUUAUGUUACGCCGUUCGGAUCUGCACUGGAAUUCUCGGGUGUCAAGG | -2.51
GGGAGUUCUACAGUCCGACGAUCCCUCAAGUCCUGUGCUACACAUCGUAUGUACCGAAUCGGGAAGGAAGGAAGGGAAAGUAUUAUGUUACGCCGUUCGGAUCUGCACUUCCAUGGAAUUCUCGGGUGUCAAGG | -0.538
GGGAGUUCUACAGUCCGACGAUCACCAUGCAGGUGGGCAUCUUUGGGAAGUGGGGCAAGGGGGGGAUAAAGAGGGGGGUAACACUUUGGGAACAGGUGGUCCCAGGUCGUUUCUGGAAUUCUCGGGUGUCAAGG | 0.787
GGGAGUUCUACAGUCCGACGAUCUCCUCAAGUCCUGUGCUACACAUCGUAUGUACCGAAUCGGCGGCGGCGGGGAAAGUAUUAUGUUACGCCGUUCGGAUCUGCACUUCCAGCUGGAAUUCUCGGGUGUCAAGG | -0.13
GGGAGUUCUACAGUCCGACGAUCGCAGGAAGUAAAAACAAACGGAAAUGCUUCGGAUAGUGGCAGGGGUGGGGGUUGCUAAGGAAAGGGUGGGAUGGGAGUGGGUAAAGAGUUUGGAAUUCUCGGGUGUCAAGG | 0.905
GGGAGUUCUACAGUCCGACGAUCAGUCCUGUGCUACACAUCGUAUGUACCGAAUCGGAAAGGUUUUUUUGGAAAAAAAGGAAAGUAUUAUGUUACGCCGUUCGGAUCUGCACUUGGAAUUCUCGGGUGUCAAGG | -1.68
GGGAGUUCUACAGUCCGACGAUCUGGGAGGUGGAUUUUGUUUCUUUUUUUAGCUCAUUUCCAGGGGUGGGAAUUUUUUUUUAAUAUGUGUCAUGAAUAAAGUUGUUUUUGAAAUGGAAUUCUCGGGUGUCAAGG | 0.328
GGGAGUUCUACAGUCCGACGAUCUAACUUUAGAGGAGGAUCUGAUGGAUAUGGCAGUGGACGCGGAUUUGGGGAUGGCUAUAAUGGGUAUGGAGGAGGACCUGGAGGUGGCAAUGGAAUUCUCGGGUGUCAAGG | 0.211
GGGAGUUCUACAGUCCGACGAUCAAGUCCUGUGCUACACAUCGUAUGUACCGAAUCAAACCCAAAUUUUUAAAUUUAAAAAAGUAUUAUGUUACGCCGUUCGGAUCUGCACUUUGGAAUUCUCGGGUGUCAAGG | -0.37

Single results of other studies
Substance | target | assay | test system | conditions | how to read | endpoint | value
PhoQ, residues 284 288 289 292 302 303 NLSRDF | PhoP, residues 12 14 15 18 19 LHATL (Escherichia coli, UniProt P23836) | Sort-seq, refers to: YFP reporter | E. coli | PhoQ-PhoP variant library, added: 10 µM Mg2+ | relative to: high Mg2+ state, higher = stronger signaling | fold induction | 1

For quick reference, copied from above (study 1):
Variant | normalised enrichment score
D12W | 0.428
D12K | 0.495
G9M | -0.00204
V11F | -0.124
L7Y | 0.24
F8G | -0.0664
C4T | -0.0623
P1W | 0.609
N6G | 0.148
R5K | -0.00831
